Published values pooled from the literature.
Numbered parts are unrelated; each lists some results of a single study.

Block 1 — technique: protein binding microarray; molecule type: double-stranded DNA, one strand shown; matrix: in vitro; tested at: not given; relative to: not given; reading: higher = stronger binding
Target: Histone acetyltransferase KAT6A, winged helix 1, GST fusion (KAT6A, Homo sapiens, UniProt Q92794, residues 1-85)
Setting: 8-mer, flanks averaged, mean of 2 arrays, mostly near background
Target sequence (chain): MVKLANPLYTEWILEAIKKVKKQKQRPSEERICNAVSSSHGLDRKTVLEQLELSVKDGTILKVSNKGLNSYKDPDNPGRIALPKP
Sequence | E-score
ACGAACGT | -0.0771
CCAAGTGG | -0.188
GTTATGTA | -0.0179
AAATTGCC | 0.0175
CAGCGATA | -0.0136
GCCGACAA | 0.205
AGCATGGC | -0.0731
ACCGAGCC | 0.0934
CGTACTGA | 0.118
AATGTGAG | -0.223
CCATGTCC | -0.00233
AACGATAT | -0.0844
GCCCGCTA | 0.319
AGTCCTCC | -0.0373
AGACCGAC | 0.181
GATAGTCC | -0.158
ATGATGCC | 0.0967
CATATAGG | -0.0794
ATTGAGTG | -0.0913
CTGACGTC | -0.124
GCCATTTA | -0.201
GCTTGCCA | 0.012
AAGTCTGA | -0.329
AAGGGATG | -0.16
AAACCTTA | -0.0691

Block 2 — technique: RNA Bind-n-Seq; molecule type: RNA; matrix: in vitro; tested at: 200 nM; setting: whole 134-nt RNA, ends assumed; with: 150 mM LiCl; relative to: input library; reading: higher = stronger binding; all molecules: 7-deaza-guanosine replaces G
Target: Fragile X messenger ribonucleoprotein 1, C-terminal low-complexity region (Fmr1, Mus musculus, UniProt P35922)
All sequences stand within: GGGAGUUCUACAGUCCGACGAUC … UGGAAUUCUCGGGUGUCAAGG
Sequence | log2 enrichment
CAAGUCCUGUGCUACACAUCGUAUGUACCGAAUCGGGUUUGGGAAAGGGUUUGGGAAAGUAUUAUGUUACGCCGUUCGGAUCUGCACUUC | -1.71
UUGCAGCAACUGCUACCAGCCUCCCAGUCCACACAGCUGCCAUGCUCAAGUUCCCCUCAGGAGACCACCCAGUCUCGCCCUAUGCCGCCG | 1.28
CAAGUCCUGUGCUACACAUCGUAUGUACCGAAUCGGGGAAAGGAAAGGGGAAAGGGAAAGUAUUAUGUUACGCCGUUCGGAUCUGCACUU | -0.969
CAAGUCCUGUGCUACACAUCGUAUGUACCGAAUCGGGGAGGGGUGGGGAAAGGGGAAAGUAUUAUGUUACGCCGUUCGGAUCUGCACUUC | 0.186
UCCUGUGCUACACAUCGUAUGUACCGAAUCGGCCCCCCCGGCCCCCCCGGCCCCCCCGGAAAGUAUUAUGUUACGCCGUUCGGAUCUGCA | 1.18
AUCAUUUCAUUUUUAUAAUUAUACAUUAGACAUUGGCACUUGUGUAAAACUGUCCCUGCAGAUUGAGCAGGAAGUAAAAACAAAUGGAAA | -1.19
ACCAUGCCGGUGGGCAUCUUUGGGAAGUGGGGCAAGGGGGGGAUAGGGAGGGGGGUAACACUUUGGGAACAGGUGGUCCCAGGUCGUUUC | 1.11
CACAGACAACACGCACCCACACAGACACAGAGGGAAGGGGUUGGGAUGGGGACAGGGUGCACAGCAGGGCGGGGUAGGACCACAGCCCCU | 0.262
CUGUGCUACACAUCGUAUGUACCGAAUCGGGGCCCCCCCGGGCCCCCCCGGCCCCCCCGGGAAAGUAUUAUGUUACGCCGUUCGGAUCUG | 0.319
CUGUGCUACACAUCGUAUGUACCGAAUCGGCCCCCCCGGGGCCCCCCCGGCCCCCCCGGGGAAAGUAUUAUGUUACGCCGUUCGGAUCUG | -1.28
AAAUGGUAGUGUGCGGAGUUUUUUUUUCUUCCUUCUUUUAAAAAUGGUUGUUUAAGACUUUAACAAUGGGAACCCCUUGUGAGCAUGCUC | -1.84

Block 3 — technique: protein-binding microarray; molecule type: double-stranded DNA, one strand shown; matrix: in vitro; tested at: 940 nM top; setting: 60-bp whole probe; with: salmon DNA 0.4 mg/ml; relative to: random background probes; reading: higher = stronger binding; all sequences stand within: GCCTAGCAC … GTCTTGATTCGCTTGACGCTGCTG
Target: Interferon regulatory factor 5, full length, phosphomimetic (IRF5, Homo sapiens, UniProt Q13568-2, residues 1-514, S451D/S453D/S456D/S462D)
Sequence | fitted relative affinity
GACGGTTTGCTTATCCTGACGTGCTAG | 0.0142 z-score
TTAGATTTCGGGACTGGGTTAGTGCTA | 0.566 z-score
TTAGGACTTGGTATCGGTTAGTGCTAG | 6.75 z-score
TTAGGTTTCCAACTGCTTTAGTGCTAG | 0.0885 z-score
GGCGGTATCGGTTTCGGGACGTGCTAG | 10.4 z-score
GACGGTTTGCTTCTCCTGACGTGCTAG | 0.439 z-score
CCTAGTTTTACTTTCTATGTGTGCTAG | 2.01 z-score
TCATCTATCAAAAATACAACTGTGCTA | 0.565 z-score
TTAGGACTGGACTATCAGTTAGTGCTA | -0.721 z-score
TTAGCTTTCCTTATCCTTTAGTGCTAG | 1.3 z-score
TCAGCTCTGATGTTGGGACTGTGCTAG | -0.674 z-score
TTAGAACTGGACTATCGGTTAGTGCTA | 0.106 z-score
TCATATTTAAGGCTAGGACTGTGCTAG | -0.158 z-score
TCAAACTTAGTTTTCAAACTGTGCTAG | -0.144 z-score
GACGATCTCAGTCTCGGGACGTGCTAG | 0.971 z-score
TCAATATTGAGACTCATACTGTGCTAG | 0.194 z-score
TTACAGATGTTTTTCATTTTGTGCTAG | 0.703 z-score
GACGGGATCGGTTTCGGGACGTGCTAG | 3.91 z-score
TCAGTTTTACTTTCTATACTGTGCTAG | 2.93 z-score
TTAGACATCGGGACTGGATTAGTGCTA | -0.324 z-score

Block 4 — technique: universal PBM; molecule type: double-stranded DNA, one strand shown; matrix: in vitro; tested at: not given; reading: higher = stronger binding
Target: Sal-like protein 4, full length isoform B (SALL4, Homo sapiens, UniProt Q9UJQ4-2, residues 1-616)
Setting: 8-mer, flanks averaged, mean of replicates
Sequence | E-score
ATCAGCTA | 0.0375
AACATGCT | 0.0419
ACACGCAC | -0.229
AGTATTCG | 0.119
GAACGCTA | -0.0712
GCGCACAA | -0.065
GATCAACA | 0.153
AGACTCAC | -0.184
GCTGTCGA | -0.157
CAATGCAC | 0.0637
ACTGCTCT | -0.0468
AAGGTGAC | 0.0212
GACCAGTA | -0.186
GATAACAA | 0.228
ATTCGTGA | 0.184
CCAAACCG | -0.3

Block 5 — technique: RNA Bind-n-Seq; molecule type: RNA; matrix: in vitro; tested at: 365 nM; relative to: no-protein control; reading: higher = stronger binding
Target: RNA binding protein fox-1 homolog 2, RRM domain, GST-SBP tag (RBFOX2, Homo sapiens, UniProt O43251-10, residues 100-194)
Setting: natural RNA segment, single round, ends assumed
All sequences stand within: GGGAGUUCUACAGUCCGACGAUC … UGGAAUUCUCGGGUGCCAA
Construct (chain): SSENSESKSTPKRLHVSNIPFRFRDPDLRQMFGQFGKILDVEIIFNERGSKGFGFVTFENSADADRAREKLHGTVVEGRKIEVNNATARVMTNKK
Sequence | RBNS enrichment (R)
GCAGUGCCCCUUCAGAGCUGGCUGGGAGCUUGGCUCAGCCACCUCUUAGGGUGCCUGCCUCUGCCAUGGCAUCCUGUCCCUUUCCCAUGUGCUCGGUGUUCAGUGGUGUA | 0.784
AAAUGACGUUGGUUCUAGAGACUUAGAGACUUGGGCAAUAGGAUUUAACACUGCUAGGUAGCUCAGACAUAUCAGAAAAUCCAUAGUGGCCUGAGUUGUAAAUCCAAAAC | 0.356
UGUAAACUAUCCCCACCCAGGGCCAGCCAUUAUCACCAGACCUCUUCUGGGCCUGGCUGUGAAGCCCUGUUUUUGGUAUUCAGAAUGGAUCUUUAAGGCUCAGAUGGGCU | 0.255
AAAUAAAAUCUAUUCUCUUAGAAGUACAGAUCAUUUUGAAACUUAAUGUGAUAUUUGUUGACAUUUUCCUGGCUAAUAUUUAAAAUUCAUUGGAAAAGAUUUUCAAAAUU | 0.467
ACAGGUAAGGAUUACCUUCUCUAGUGGUUCUUGCGAUUUGUCUGCCUAGGUGUGCUCCAGGUUGCCUGUGGGUUUCCUUUCUGUGAUGGGAUUUAGUGUAGACAUUCUUG | 0.41
UUCUCACUGAGUCUAUUGUUUGUCUUCACAUUGCUGAUGGAACGAAAUGUUGACACUCAGUGAUGUGCUGUGCAUCUUGAGGUCAGCAGGCACUAACCUGGCACCUUUUA | 0.6
UAUACUCCUGUGUAAUAAGACUGAUGCAGAGCCCUGAAUUUCAUUCUGUCUAUGAAUACCUUUUUGAACAAAGAAAAUUUUAUUGAUUUAAAAAGCUUUUAUAUGAGACA | 0.645
GGCUGUGCGUGGCAGGACAGAAGCACUGUAAAGGGCUCUCCAGCCGCAGCUCAGCUGCACUGCGUUCCGAGGUGAAGUCUUGCCCCUGAAUUUUGCAAAAUGGGAAAGUG | 0.57
AAACCCCUAACUCCCUCCAGACACCCAGGGAAUACCCUCUGCCCCACAGGAUUGAAGACUGCUUGGCAGUCCUCCCAAUCCCACACCUCCUGUUUGCCAGGGGAAAGAAC | 0.503
CUGCGGUAGCUCCCUCCCUUCAGAGUUACAUCAUUAUCCUGACUCUGUGUAGGUAAAUUUCCGUGAAAUUUUUGUACAAAAAAAAAGGUAAUGAAAGAACGUUGCAAAGA | 0.605
CUUGUCCUGCUCUCUUCAGGAGGCCCUGGUGUCAGGCAGGUUUGCCAGUGAAGACUUCUUGGGUAGUUUAGAUCCCAUGUCACCUCAGCUGAUAUUAUGGCAAGUGAUAU | 0.432
CUAGAUUUUCCAGCUGACUUUGGUAUAAUAUAUAUUUAUCAGGAACUUCUCUCAGCAGAGAGUACCCAUUCUUCGAGUUCAAAGCACAAUUUUAAACAUGUAAAAUGGAU | 0.279

A few entries again (block 3):
Sequence | fitted relative affinity
TTAGGTTTCCAACTGCTTTAGTGCTAG | 0.0885 z-score
TCAGCTCTGATGTTGGGACTGTGCTAG | -0.674 z-score
GGCGGTATCGGTTTCGGGACGTGCTAG | 10.4 z-score
TTAGCTTTCCTTATCCTTTAGTGCTAG | 1.3 z-score
TTACAGATGTTTTTCATTTTGTGCTAG | 0.703 z-score
TTAGATTTCGGGACTGGGTTAGTGCTA | 0.566 z-score
TCATATTTAAGGCTAGGACTGTGCTAG | -0.158 z-score
GACGGGATCGGTTTCGGGACGTGCTAG | 3.91 z-score
TTAGACATCGGGACTGGATTAGTGCTA | -0.324 z-score
